Results gathered from unrelated publications.
A part holds a random share of what one study measured. Positions count from the first letter of the parent shown.

Block 1 — target: UBE2E2 UBC core domain (UniProt Q96LR5); method: yeast two-hybrid; medium: yeast; notes: mostly zero background; reference: not given; reading: higher = stronger interaction
Sequence of UniProt Q96LR5 (whole entry, looked up): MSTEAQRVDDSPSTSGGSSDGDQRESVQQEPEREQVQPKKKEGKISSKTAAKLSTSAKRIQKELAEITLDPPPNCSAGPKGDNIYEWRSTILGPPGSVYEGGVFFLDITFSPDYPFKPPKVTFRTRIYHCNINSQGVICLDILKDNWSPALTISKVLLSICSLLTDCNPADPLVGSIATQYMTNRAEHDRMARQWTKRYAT
B1: ZNF598 RING domain (UniProt Q86UK7); chain AAAPERGGGSCVLCCGDLEATALGRCDHPVCYRCSTKMRVLCEQRYCAVCREELRQVVFGK
B2: MID1 RING domain (UniProt O15344); chain METLESELTCPICLELFEDPLLLPCAHSLCFNCAHRILVSHCATNESVESITAFQCPTCRHVITLSQRGL
B3: ARK2C RING domain (UniProt Q6ZSG1); chain EGEESDTDEKCTICLSMLEDGEDVRRLPCMHLFHQLCVDQWLAMSKKCPICRVDIETQLGAD
`DAIPSLSECQCGICMEILVEPVTLPCNHTLCKPCFQSTVEKASLCCPFCRRRVSSWTRYH (RNF168 RING domain (UniProt Q8IYW5))` — result for “lacZ reporter activity”: 0.
Under “lacZ reporter activity”, `B1 (ZNF598 RING domain)` is recorded as 0.
For `DDENSDNSNECVVCLSDLRDTLILPCRHLCLCTSCADTLRYQANNCPICRLPFRALLQIR (MGRN1 RING domain (UniProt O60291))`, “lacZ reporter activity” read 0.
`QLQDIKEQTMCPVCLDRLKNMIFLCGHGTCQLCGDRMSECPICRKAIERRILLY (MIB1 RING domain (UniProt Q86YT6))`: “lacZ reporter activity” 0.
`B2 (MID1 RING domain)`: “lacZ reporter activity” 0.
`B3 (ARK2C RING domain)` — result for “lacZ reporter activity”: 0.

Block 2 — target: CCNB3, cyclin fold, Cln2 fusion (human); method: yeast growth competition, sequencing; medium: yeast; notes: weak parent motif; reference: not given; reading: higher = stronger binding
Parent: WEE1 docking peptide (human); HKTFRKLRLFDTP
`T3C`: “normalised enrichment score” -0.0148.
`H1A`: “normalised enrichment score” -0.123.
`D11C`: “normalised enrichment score” 0.693.
`P13I`: “normalised enrichment score” -0.119.
`K6Q` — result for “normalised enrichment score”: 0.391.
For `K6I`, “normalised enrichment score” read 0.404.
Under “normalised enrichment score”, `K2N` is recorded as 0.185.
Under “normalised enrichment score”, `L7A` is recorded as -0.246.
`R8T`: “normalised enrichment score” 0.297.
For `F4T`, “normalised enrichment score” read 0.387.
Under “normalised enrichment score”, `K2W` is recorded as 0.228.
Under “normalised enrichment score”, `R8D` is recorded as -0.0337.
For `T12R`, “normalised enrichment score” read 0.395.
Under “normalised enrichment score”, `T12E` is recorded as 0.406.
For `R8L`, “normalised enrichment score” read 0.407.

Block 3 — method: protein-binding microarray; molecule type: double-stranded DNA, one strand shown; medium: in vitro; tested at: 250 nM; notes: 60-bp whole probe; with: salmon DNA 0.4 mg/ml; reference: random background probes; reading: higher = stronger binding; all sequences stand within: GCCTAGCAC … GTCTTGATTCGCTTGACGCTGCTG
Target: Interferon regulatory factor 5, full length, phosphomimetic (IRF5, Homo sapiens, UniProt Q13568-2, residues 1-514, K96S/S451D/S453D/S456D/S462D)
With `AACGGTCTCCTTATCCTGACGTGCTAG` the log fluorescence was -0.153 z-score.
`GACGATTTCATTCTCGAGACGTGCTAG` gave a log fluorescence of 1.43 z-score.
`AGAATGATCTTCCTTCATGGCGTGCTA` has a log fluorescence of 0.288 z-score.
The log fluorescence of `GACGATTTCGGGTATAGAGACGTGCTA` is reported as 4.22 z-score.
With `TTAGATCTTAGACTGGATTAGTGCTAG` the log fluorescence was 0.0833 z-score.
The log fluorescence of `TCATGTTTACAGATGTTACTGTGCTAG` is reported as 0.359 z-score.
`TAAGATTCCAGTTTCGATTAGTGCTAG` gave a log fluorescence of 9.83 z-score.
`TTAGAACTGAGTATCGAGTAGTGCTAG` has a log fluorescence of 2.39 z-score.
With `TTAGGTCTCGATATCGGTTAGTGCTAG` the log fluorescence was 3.71 z-score.
`TCTACTTCTGTTTTTGCTTTGTGCTAG` has a log fluorescence of 1.5 z-score.
`CGTACTGTATCTAGCCTTGCGTGCTAG` has a log fluorescence of -0.197 z-score.
`GGTTTTTACTTTCTGAATGCGTGCTAG` has a log fluorescence of 4.15 z-score.
With `TCAGGTTTCCAAATTGTACTGTGCTAG` the log fluorescence was 0.529 z-score.
`GTGATCCGTCCGCCTCAGCCGTGCTAG` has a log fluorescence of -0.552 z-score.
With `GACGCTATCGGGTTTCGGGACGTGCTA` the log fluorescence was 4.89 z-score.
`GACTAACTGAGACTGGAGACGTGCTAG` has a log fluorescence of -0.345 z-score.
For `GGTCCTCTAGGAATGTAACTGTGCTAG`, the log fluorescence was -0.427 z-score.

Block 4 — method: aptamer microarray, sandwich; molecule type: DNA with 2'F-ANA; medium: in vitro; tested at: 200 nM; with: Cy3 exosite-II aptamer, 400 nM; reading: higher = stronger binding; strand: GGTTGGTGTGGTTGG
Target: Prothrombin, mature alpha-thrombin (F2, Homo sapiens, UniProt P00734)
Notes: whole 15-mer aptamer, many near background
For `2'F-ANA at 1 2 5 8 9 10 13 15`, “mean fluorescence intensity” read 49.2 a.u.
`2'F-ANA at 2 3 4 5 7 9 10 11 12`: “mean fluorescence intensity” 79.7 a.u.
Under “mean fluorescence intensity”, `2'F-ANA at 1 3 4 5 7 9 12 13 15` is recorded as 70.3 a.u.
`2'F-ANA at 2 4 5 6 10`: “mean fluorescence intensity” 107 a.u.
`2'F-ANA at 1 3 7 11 12 14` — result for “mean fluorescence intensity”: 113 a.u.
`2'F-ANA at 1 3 4 5 11 13 14`: “mean fluorescence intensity” 54.2 a.u.
`2'F-ANA at 1 2 3 4 6 7 8 9 10 11 12 13 14 15` — result for “mean fluorescence intensity”: 54.2 a.u.
For `2'F-ANA at 1 5 7 10 11 12 15`, “mean fluorescence intensity” read 48 a.u.
Under “mean fluorescence intensity”, `2'F-ANA at 1 4 9 10 12 13` is recorded as 52.4 a.u.
For `2'F-ANA at 1 3 4 5 9 10 11 13`, “mean fluorescence intensity” read 43.1 a.u.
`2'F-ANA at 3 4 5 6 9 11 12 13 14 15`: “mean fluorescence intensity” 55.7 a.u.
`2'F-ANA at 2 4 5 6 7 9 10 15`: “mean fluorescence intensity” 47.2 a.u.
Under “mean fluorescence intensity”, `2'F-ANA at 2 3 4 10 11 12 13 14` is recorded as 187 a.u.
For `2'F-ANA at 4 6 8 9 12 13 14`, “mean fluorescence intensity” read 98.8 a.u.
Under “mean fluorescence intensity”, `2'F-ANA at 1 2 3 4 5 11 13 14` is recorded as 46.5 a.u.
Under “mean fluorescence intensity”, `2'F-ANA at 5 6 7 8 9 10 11 12 13 15` is recorded as 50.7 a.u.
`2'F-ANA at 1 2 5 9 10 11 12 15` — result for “mean fluorescence intensity”: 49.8 a.u.
For `2'F-ANA at 3 4 12`, “mean fluorescence intensity” read 1020 a.u.
Under “mean fluorescence intensity”, `2'F-ANA at 3 4 5 6 7 8 9 10 12 13` is recorded as 53.9 a.u.
`2'F-ANA at 1 3 7 11 12 13`: “mean fluorescence intensity” 433 a.u.

For quick reference, copied from above (block 4):
For `2'F-ANA at 1 5 7 10 11 12 15`, “mean fluorescence intensity” read 48 a.u.
Under “mean fluorescence intensity”, `2'F-ANA at 1 4 9 10 12 13` is recorded as 52.4 a.u.
For `2'F-ANA at 4 6 8 9 12 13 14`, “mean fluorescence intensity” read 98.8 a.u.
`2'F-ANA at 1 3 4 5 11 13 14`: “mean fluorescence intensity” 54.2 a.u.
